# Experimental data collected from several papers.
# Every numbered part comes from another study and shows a few of its results, in no order. Positions count from the first letter of the parent shown.

# Series 1 — technique: protein-binding microarray; molecule type: double-stranded DNA, one strand shown; matrix: in vitro; concentration: 940 nM top; setting: 60-bp whole probe; with: salmon DNA 0.4 mg/ml; relative to: random background probes; reading: higher = stronger binding; constant ends, left off below: GCCTAGCAC … GTCTTGATTCGCTTGACGCTGCTG
# Target: Interferon regulatory factor 5, full length, phosphomimetic (IRF5, Homo sapiens, UniProt Q13568-2, residues 1-514, S451D/S453D/S456D/S462D)
Sequence,fitted relative affinity [z-score]
TCAAAAGTGTTTCTCAAACTGTGCTAG,-0.271
GACGGTCGCCTTATCCTGACGTGCTAG,-0.0753
GACTGACTGGGGTATCGGGACGTGCTA,0.58
TCACCAATCATTTTTGCACTGTGCTAG,0.0314
TTAGGACTTGACTTTCGGTTAGTGCTA,3.06
TTAGGTTTCCGGACTGGGTTAGTGCTA,0.718
TCAGGCTTCTATGTAGTACTGTGCTAG,-0.113
GATGGACTGGGTTTCGGGACGTGCTAG,2.57
GACGGTATCGGAATGGGGACGTGCTAG,3.65
GTCGATCTCAGTATCGAGACGTGCTAG,3.53
CCCACCTCTCACGGGCTTGTGTGCTAG,0.364
TTAAGTATCCTACTGCTTTAGTGCTAG,0.0841
GACGGTTTCGGTCTCGGCACGTGCTAG,13.9
GACTGTTCCGGTTTCGGGACGTGCTAG,4.28
TTAGGACTGGGTATCGGTTTGTGCTAG,3.32
TCAGGTTTCACTTTCCAACTGTGCTAG,7.82
TCATGCTTTCTTTTTGCACTGTGCTAG,1.33
TTAGGTGTCGGGTATCGGTTAGTGCTA,3.02
TGAGAACTGAGACTGGATTAGTGCTAG,-0.163
GACGGTACCGGACTGGGGACGTGCTAG,-0.35
CATTTTAGTAGTTTCTAAAAGTGCTAG,0.708
GACGGTATCGACTATCGGAACGTGCTA,5.09
CAGTAGATGGCGCCTGAGAGGTGCTAG,-0.437

# Series 2 — technique: RNA Bind-n-Seq; molecule type: RNA; matrix: in vitro; concentration: not given; relative to: input RNA pool; reading: higher = stronger binding
# Target: RING finger protein unkempt homolog, zinc fingers 1-6, GST-SBP tag (UNK, Homo sapiens, UniProt Q9C0B0, residues 30-357)
# Setting: RNA with constant flanks, human and mouse sites, ends assumed
# Constant ends, left off below: GGGAGUUCUACAGUCCGACGAUC … CAACAGAGGAUUGAGCAUCA
# Residues (chain): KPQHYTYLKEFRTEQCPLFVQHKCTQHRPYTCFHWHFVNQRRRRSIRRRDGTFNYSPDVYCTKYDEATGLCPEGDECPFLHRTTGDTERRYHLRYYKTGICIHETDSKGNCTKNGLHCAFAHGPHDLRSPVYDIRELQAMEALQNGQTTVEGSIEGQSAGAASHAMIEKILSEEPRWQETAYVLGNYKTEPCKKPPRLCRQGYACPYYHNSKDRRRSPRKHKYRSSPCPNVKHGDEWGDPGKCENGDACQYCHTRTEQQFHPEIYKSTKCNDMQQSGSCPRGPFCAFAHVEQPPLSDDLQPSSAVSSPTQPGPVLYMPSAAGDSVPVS
Sequence,bound/input enrichment
ACUCCAAAGCCACUUCGAAGUAGUGCUGAUCCUGCACUGAAUCAAGAGGUUGCAUUAAAAUUAGAAUCAAGUCCAGAGUCACUGGGACUUUCUUUUACCAUGCCCCAGAUUCAAGAUCAG,0.159 ratio
AAGAUAAACAGAAUAGACCAUGACCGGAGAGCGAUGGCUACUUUGCUUAGCAAGUUCCGGAUAGACUUUUCUGAUAUCAUGGUUCUAGGAGAUAUCAAUACCAAACCAAAGAAAGAAAAU,0.15 ratio
AGCAAAUUCUGUGACUAUGAAAGGAGAUUCCAGAUGACUUUCCAGUUCAGCAUAUGGGACAAAUUUCGGGACUUAGAAAAUUUGCCAGACACUAAGUUCUCAAAUCUGGUUCAUCUGCUG,0.0682 ratio
CUCUACAAUGCUGCCAGUUUAUUUGGAUUCCCGUUCCAGCUGACCACAAAACCCAUGGUGUCUUCUGCUUGUAAUGGAACACGGAAUGUGGCCCCUUCUGGAGAGGUCUUUUCGAACUCU,0.228 ratio
CUCUCAUUAUUUAUUGAUGAUAAACUGAAAAAGGGAGUCAAAGGGCUAACAGAACAAGAAGUAGAAACAAUAUUGGAUAAGGCAAUGGUCCUUUUUAGGUUUAUGCAAGAAAAAGAUGUA,11.5 ratio
AUAGUGAAAGGAGGCGCCGCAGAGAAGAGUGGCCUCCUGCACGAAGGAGACGAAGUUCUGGAGAUCAACGGCAUUGAAAUCCGGGGCAAGGAUGUCAAUGAGGUUUUUGACUUGUUGUCU,0.105 ratio
AGGGCAGUGGUAAAAAAUAAUCUUGCCCCACUUUUGAUGUGCAAGGAAUUGGUCACCAUUUAGUAUAUGUUUACUGGCUUCAUCACGGACCCUUAUGUCAACAGGUUCUUUCCAUUCCUA,0.551 ratio
CAUGUCACAAAGUUUUUUAACUAUAAGGUUGUAUUGCUGGGAAAAUACAACGCACAAGGCCUGGGCGCAGACCAUGAGUUGAUGCUGAGGUGCACCAGAGGACAAGAGUAUGUCAAAGUC,0.323 ratio
GCAACGCCAAAGGUGAAGAACCAGCUCAAGGAGACCACUGAGGCAGCCUGCAGAUACGGAGCCUUUGGGCUGCCCAUCACCGUGGCCCAUGUGGAUGGCCAAACCCACAUGUUAUUUGGC,0.101 ratio
GCGGAUGAAGUGCAGCGCUUUUUUUCUGACUGCAAAAUUCAAAAUGGGGCUCAAGGUAUUCGUUUCAUCUACACCAGAGAAGGCAGACCAAGUGGCGAGGCUUUUGUUGAACUUGAAUCA,0.174 ratio
GAGGUACUUAUAAGACAUUUCCAAAGUCAAGUUAAUGAGCUGCAGAGUAAACAAGAGUCUCUCGUAGUUUCUGAAGUUCGAGAAGAAAUUCUACAGAAAGAGAUUACAAAACUCUUAGAA,0.244 ratio

# Series 3 — target: CCNA1, cyclin fold, Cln2 fusion (human); technique: yeast growth competition, sequencing; matrix: yeast; setting: weak parent motif; relative to: not given; reading: higher = stronger binding
# Parent: E2F7 docking peptide (human); SSAQRRLEIPSGG
Variant,normalised enrichment score
R5K I9F,0.0242
P10A,0.364
I9F,0.711
S11A,0.138
E8A,0.336
I9A,0.238
L7A,0.244
R5A,0.478

# Series 4 — technique: aptamer microarray, sandwich; molecule type: DNA with 2'F-ANA; matrix: in vitro; concentration: 200 nM; with: Cy3 exosite-II aptamer, 400 nM; reading: higher = stronger binding; sequence: GGTTGGTGTGGTTGG
# Target: Prothrombin, mature alpha-thrombin (F2, Homo sapiens, UniProt P00734)
# Setting: whole 15-mer aptamer, many near background
Modification,mean fluorescence intensity [a.u.]
2'F-ANA at 1 2 4 7 9 10 13 14 15,48.8
2'F-ANA at 1 2 6 7 8 9 10 11 12 13,63.4
2'F-ANA at 3 6 8 10 11 12 14,341
2'F-ANA at 5 6 7 10 14,42.9
2'F-ANA at 1 2 3 4 6 8 10 15,58.5
2'F-ANA at 7 8 11 13,489
2'F-ANA at 3 4 6 7 10 12 13 14,155
2'F-ANA at 2 3 4 6 7 11 12 13 14,247
2'F-ANA at 1 2 4 8 9 11 12 15,244
2'F-ANA at 2 8 13 15,369
2'F-ANA at 1 2 4 5 6 8 10 12,50.8
2'F-ANA at 2 3 4 6 8 9 11 12 14,257
2'F-ANA at 1 2 6 7 8 10 11 12 13 14 15,51.9
2'F-ANA at 1 4 5 6 7 10 13,46.7
2'F-ANA at 2 6 7 8 13 14,137
2'F-ANA at 2 3 5 8 9 10 11 12 14,50.5
2'F-ANA at 4 6 9 10 11 12 13 14,151
2'F-ANA at 4 5 6 9 10 13 14,75.1

# Series 5 — technique: universal PBM; molecule type: double-stranded DNA, one strand shown; matrix: in vitro; concentration: not given; reading: higher = stronger binding
# Target: Sal-like protein 4, full length isoform B (SALL4, Homo sapiens, UniProt Q9UJQ4-2, residues 1-616)
# Setting: 8-mer, flanks averaged, mean of replicates
# Residues (chain): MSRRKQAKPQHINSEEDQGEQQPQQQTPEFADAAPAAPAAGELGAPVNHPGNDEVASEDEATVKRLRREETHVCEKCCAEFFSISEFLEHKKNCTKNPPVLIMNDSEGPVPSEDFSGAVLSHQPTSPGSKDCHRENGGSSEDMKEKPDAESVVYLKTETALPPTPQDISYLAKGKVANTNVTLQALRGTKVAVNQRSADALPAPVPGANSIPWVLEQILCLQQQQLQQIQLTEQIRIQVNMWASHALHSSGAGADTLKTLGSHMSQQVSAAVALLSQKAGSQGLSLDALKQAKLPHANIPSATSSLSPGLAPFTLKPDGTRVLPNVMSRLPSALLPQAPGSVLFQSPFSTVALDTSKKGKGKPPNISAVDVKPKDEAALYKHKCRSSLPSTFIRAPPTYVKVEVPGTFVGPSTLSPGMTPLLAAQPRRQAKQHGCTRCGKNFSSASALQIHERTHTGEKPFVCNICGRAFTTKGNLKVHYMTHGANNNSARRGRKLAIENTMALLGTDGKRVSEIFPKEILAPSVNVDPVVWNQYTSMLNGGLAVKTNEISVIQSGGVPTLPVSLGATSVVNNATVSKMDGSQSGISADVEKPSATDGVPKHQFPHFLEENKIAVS
Sequence,E-score
CACGACTG,-0.192
GCCGGACC,-0.394
GTGTCAAC,-0.162
TCTTCTAA,0.147
ATAGGATC,0.102
AGCCGACC,-0.281
AGGGCTGC,-0.317
GTGGATCA,-0.0859
CCTTTCCC,-0.0628
CCCCATCG,-0.194
AGTTCTTC,-0.078
GCGAGCAC,-0.185
AAAATATC,0.36
CCCCAGAA,-0.234
ACCTTTCT,0.0413
CTCACCAA,0.138
ACGAATGC,0.167
AAGGGAGC,-0.317
CATGCCCC,-0.21
ATTTTTGG,0.15
GGTCTATA,0.205
GCATTAAC,0.0626
GTACGCCA,-0.244
CGGAAGAG,-0.125
CCTTGTTC,-0.107

# Repeated from above (series 1):
Sequence,fitted relative affinity [z-score]
GACGGTCGCCTTATCCTGACGTGCTAG,-0.0753
GACTGACTGGGGTATCGGGACGTGCTA,0.58
TCACCAATCATTTTTGCACTGTGCTAG,0.0314
TTAGGACTTGACTTTCGGTTAGTGCTA,3.06
TTAGGTTTCCGGACTGGGTTAGTGCTA,0.718
TCAGGCTTCTATGTAGTACTGTGCTAG,-0.113
GATGGACTGGGTTTCGGGACGTGCTAG,2.57
GACGGTATCGGAATGGGGACGTGCTAG,3.65
GTCGATCTCAGTATCGAGACGTGCTAG,3.53
CCCACCTCTCACGGGCTTGTGTGCTAG,0.364
TTAAGTATCCTACTGCTTTAGTGCTAG,0.0841
GACGGTTTCGGTCTCGGCACGTGCTAG,13.9
GACTGTTCCGGTTTCGGGACGTGCTAG,4.28
TTAGGACTGGGTATCGGTTTGTGCTAG,3.32
